Results pooled from the literature.
Each numbered part is a random draw from the data of one study; scales do not carry over between parts. Several values in a cell are separate wells, animals, samples, runs or records.

Series 1 — concentration: 10 µM; quantity: inhibition
SMILES: CCS(=O)(=O)c1cc2cc(C[C@@](O)(CC(C)(C)c3ccc(F)cc3C(N)=O)C(F)(F)F)[nH]c2cn1
Sodium-dependent dopamine transporter (SLC6A3, Homo sapiens, UniProt Q01959); binding, radioligand binding: 2.58%
Mu-type opioid receptor (OPRM1, Homo sapiens, UniProt P35372); binding, radioligand binding: 7.98%
5-hydroxytryptamine receptor 2A (HTR2A, Homo sapiens, UniProt P28223); cell-free assay: 14.1%
Muscarinic acetylcholine receptor M3 (CHRM3, Homo sapiens, UniProt P20309); binding, radioligand binding: 1.25%
Sodium-dependent noradrenaline transporter (SLC6A2, Homo sapiens, UniProt P23975); binding, radioligand binding: -15.5%
D(1B) dopamine receptor (DRD5, Homo sapiens, UniProt P21918); binding, radioligand binding: 32.4%
Sodium-dependent serotonin transporter (SLC6A4, Homo sapiens, UniProt P31645); binding, radioligand binding: -10.9%
Kappa-type opioid receptor (OPRK1, Homo sapiens, UniProt P41145); binding, radioligand binding: 28.3%

Series 2 — observed: enzyme activity; mode: inhibitor; concentration: 0.5 µM; relative to: control; quantity: remaining activity
Structure (SMILES): O=C1NC(=O)c2c1c1c3ccccc3n3c1c1c2c2ccccc2n1[C@H]1CC[C@@H]3O1
Tyrosine-protein kinase HCK (HCK, Homo sapiens, UniProt P08631): 24.8%
Mitogen-activated protein kinase kinase kinase kinase 5 (MAP4K5, Homo sapiens, UniProt Q9Y4K4): 2.69%
Platelet-derived growth factor receptor beta (PDGFRB, Homo sapiens, UniProt P09619): 19.1%
Mitogen-activated protein kinase kinase kinase 9 (MAP3K9, Homo sapiens, UniProt P80192): 8.72%

Series 3 — organism: Plasmodium berghei; mode: inhibitor; cell line: Huh-7; strain: GFP-expressing sporozoites, liver stage; concentration: 10 µM; time: 24 h; relative to: untreated control; quantity: infection rate
C[C@@H]1C[C@@H]([C@H](O)CC2CC(=O)NC(=O)C2)C(=O)[C@@H](C)C1: 1.28%
CC(CC(C(N)=O)(c1ccccc1)c1ccccc1)N(C)C (stereo not shown): 101%
CC(=O)Nc1cc([As](=O)(O)O)ccc1O: 86.4%

Series 4 — method: CCK-8; quantity: survival
SMILES: CC(C)S(=O)(=O)c1cc2c(Nc3ccc4sc(C5CCCC5)nc4c3)ccnc2cc1OCCO
L929 RIPK3-/- reexpressing RIPK3 K51A/R69H; 50 µM: 25.5% and 25.2% and 28.1% and 28.7%
L929 RIPK3-/- reexpressing RIPK3 K51A; 6.25 µM: 85.2% and 82.1% and 86.7% and 76%
L929 RIPK3-/- reexpressing RIPK3 K51A/R69H; 25 µM: 66.2% and 64.5% and 70.3% and 61% and 60.2%
L929 RIPK3-/- reexpressing RIPK3 K51A/R69H; 50 µM, with: zVAD: 25.1% and 23.4% and 27%
L929 RIPK3-/- reexpressing RIPK3 K51A/R69H; 12.5 µM: 75.7% and 81.8% and 87.1% and 78.9% and 78.8%
L929 RIPK3-/- reexpressing RIPK3 K51A; 50 µM, with: zVAD: 11.8% and 13.5% and 13.1% and 11.4% and 12.9%
L929 RIPK3-/- reexpressing RIPK3 K51A/R69H; 3.125 µM: 98.2% and 96.1% and 93% and 91.9% and 100%

Repeated from above (series 4):
L929 RIPK3-/- reexpressing RIPK3 K51A/R69H; 25 µM: 66.2% and 64.5% and 70.3% and 61% and 60.2%
L929 RIPK3-/- reexpressing RIPK3 K51A/R69H; 12.5 µM: 75.7% and 81.8% and 87.1% and 78.9% and 78.8%
